{"data": "Assay results of several laboratories", "ADRB2": "Beta-2 adrenergic receptor (ADRB2, Homo sapiens, UniProt P07550)", "note": "Protocols differ between the studies behind these lines. Values joined by “and” are separate records of one study, mostly repeats; a detail may differ.", "UniProt P07550, sequence (whole entry, looked up)": "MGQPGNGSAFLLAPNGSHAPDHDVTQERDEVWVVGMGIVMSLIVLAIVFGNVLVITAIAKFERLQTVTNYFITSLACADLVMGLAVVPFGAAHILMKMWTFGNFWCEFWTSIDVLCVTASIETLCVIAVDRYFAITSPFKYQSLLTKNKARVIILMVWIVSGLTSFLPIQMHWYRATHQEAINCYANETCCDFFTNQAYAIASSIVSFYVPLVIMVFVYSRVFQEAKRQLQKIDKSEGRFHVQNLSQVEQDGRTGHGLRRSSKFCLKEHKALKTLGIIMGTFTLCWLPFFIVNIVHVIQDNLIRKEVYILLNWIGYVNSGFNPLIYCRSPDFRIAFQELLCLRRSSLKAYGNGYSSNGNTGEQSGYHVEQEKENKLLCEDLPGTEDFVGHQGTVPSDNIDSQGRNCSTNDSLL"}
{"SMILES": "OCCCN1CC[C@@H]2C[C@H]1c1cc(-c3ccc(C(F)(F)F)cc3)ccc12", "target": "ADRB2", "test": "radioligand binding, PDSP competition binding", "conditions": "10 µM", "measurement": "inhibition", "result": "< 50%"}
{"SMILES": "N[C@@H](Cc1ccccc1)C(=O)O", "target": "ADRB2", "system": "HEK293 expressing β2AR", "conditions": "100 nM", "measurement": "cAMP level", "result": "19.1 pmol/mg protein and 16.6 pmol/mg protein and 18 pmol/mg protein and 16.4 pmol/mg protein and 19.7 pmol/mg protein"}
{"SMILES": "CN(C(=O)n1cnc(-c2ccc[n+]([O-])c2)c1)C1CCCCC1", "target": "ADRB2", "conditions": "10 µM", "measurement": "inhibition", "result": "25.2%"}
{"SMILES": "CN1CCC(CNc2ccc3ncc(-c4cccc(OC(F)(F)F)c4)n3n2)CC1", "target": "ADRB2", "test": "cAMP, antagonist, cell-based GPCR", "conditions": "10 µM", "how to read": "baseline: control", "measurement": "response", "result": "> 50%"}
{"SMILES": "CCN1/C(=C/C(C)=O)Sc2ccc(F)cc21", "target": "ADRB2", "conditions": "10 µM", "measurement": "inhibition", "result": "3.19%"}
{"SMILES": "CCC(NC(C)C)C(O)c1ccc(O)c2[nH]c(=O)ccc12 (centres unmarked)", "target": "Beta-2 adrenergic receptor, V2R C-tail fusion (ADRB2, Homo sapiens, UniProt P07550)", "test": "β-arrestin recruitment, agonist, two-component system, item: Cerulean", "system": "HEK293", "measurement": "Hill coefficient", "result": 1.09}
{"SMILES": "COc1cc(Cl)c(C(=O)N[C@@H](CN[C@H]2CC[C@@H](N)CC2)Cc2ccc(C#N)cc2)cc1-c1ccc(CN[C@H](C)c2ccc(C)cc2)o1", "target": "ADRB2", "test": "agonist response, antagonist", "system": "2", "conditions": "10 µM", "measurement": "inhibition", "result": "45%"}
{"SMILES": "CCCC(CCC)c1nc2c(Nc3ccc(C#CCCCCCCCCN)cc3)nc3ccccc3c2[nH]1", "target": "ADRB2", "test": "PDSP screening", "measurement": "off-target affinity", "result": "inactive"}
